Experimental data from different studies.
± gives the spread as reported.
ESR2: Estrogen receptor beta (ESR2, Homo sapiens, UniProt Q92731)
blaNDM-1: Metallo-beta-lactamase type 2 (blaNDM-1, Klebsiella pneumoniae, UniProt C7C422)

For `O=C(O)CCC(=O)C(=O)O`, the apparent kcat was 0.317 ± 0.15 s⁻¹ (HIF1AN (Homo sapiens, UniProt Q9NWT6, Q147A); cosubstrate; pH 7.00, 37.0 °C, mutant Q147A, with: CTAD peptide 100 µM, cosubstrate 217 µM).
For `C[C@H]1CN(c2n[nH]c3nc(N[C@H]4CC[C@H](NS(=O)(=O)CCC(F)(F)F)CC4)ncc23)CCO1`, the remaining binding was 0.95 (Tight junction protein 1 (TJP1, Homo sapiens, UniProt Q07157); Kinobeads competition, measured: TJP1; 0.8 µM, unit not given; reference: vehicle).
`OB(O)CSc1nc2ccccc2n1Cc1ccc(C(F)(F)F)cc1C(F)(F)F` has a kinact/KI of 900 ± 100000 M⁻¹ s⁻¹ (Regulatory protein BlaR1, sensor domain (blaR1, Staphylococcus aureus, UniProt P18357); pH 7.4).
`COc1ccc(N2C(=O)N(c3c(C)cccc3Cl)Cc3cnc(Nc4ccc(C5CCN(C)CC5)cc4OC)nc32)nc1` gave an inhibition of 2.41% (PRKCI (Homo sapiens, UniProt P41743); kinase activity, inhibitor; 0.5 µM, kinase PKC-IOTA).
For `COc1cc(N)c(Cl)cc1C(=O)NC1CN2CCC1CC2` (stereo not shown), “log2 fold change” read 0.04 (G-protein coupled receptor 83 (GPR83, Homo sapiens, UniProt Q9NYM4); β-arrestin recruitment, TANGO luminescence, measured: GPR83; concentration not given; reference: basal luminescence).
`Nc1ncnc2c1ncn2[C@@H]1O[C@H](COP(=O)(O)OP(=O)(O)OP(=O)(O)O)[C@@H](O)[C@H]1O` has a Hill slope of 1.47 ± 0.164 (GTP 3',8-cyclase (moaA, Staphylococcus aureus, UniProt P69848); competition with GTP).
For `CC(CCn1ccc(-c2ccc(-c3cn(CC45CC(C4)C5)nn3)cc2)cc1=O)(C(=O)NO)S(C)(=O)=O` (stereo not shown), the residence time was roughly 120 min (UDP-3-O-acyl-N-acetylglucosamine deacetylase (Pseudomonas aeruginosa, UniProt P47205); fluorescence; 37 °C).
For `O=C(Nc1cccnn1)N1CCC(=Cc2cccc(Oc3ccc(C(F)(F)F)cn3)c2)CC1`, the inhibition was 5% (PTGER1 (Homo sapiens, UniProt P34995); binding, measured: EP1; 10 µM, human, with: [3H]prostaglandin E2).
The remaining activity of `COC(=O)[C@@]1(O)C[C@H]2O[C@]1(C)n1c3ccccc3c3c4c(c5c6ccccc6n2c5c31)C(=O)NC4` is reported as 116% (MAPK3 (Homo sapiens, UniProt P27361); ADP-Glo; 8.45 µM, with: substrate MBP).
With `CN(C(=O)n1cnc(-c2ccc[n+]([O-])c2)c1)C1CCCCC1` the inhibition was 1% (ESR2; radioligand binding; 50 µM, with: [3H]estradiol).
The remaining binding of `Nc1ncc(-c2nc(N3CCOCC3)nc(N3CCOCC3)n2)c(C(F)F)n1` is reported as 0% (PIK3CA (Homo sapiens, UniProt P42336, C420R); KINOMEscan; 10 µM).
`CCCCC/C=C\C/C=C\C/C=C\C/C=C\CCCC(=O)NCCO` — result for “maximal open probability”: 0.83 ± 0.16 (Trpv1 (Mus musculus, UniProt Q704Y3, N552Q); ion current, agonist, whole-cell patch clamp; N552Q; reference: 3 mM 2-APB).
`O=C(Nc1cnccc1Cl)N1CCN(Cc2ccc3c(c2)OC(F)(F)O3)CC1` — result for “inhibition of binding”: 2% (ESR2; radioligand binding; 50 µM, with: [3H]estradiol).
The apparent Vmax of `O=P(O)(O)OC[C@H]1C[C@@](O)(CO)[C@@H](O)[C@H](O)[C@@H]1O` is reported as 1.9 ± 0.2 µM/min (2-epi-valiolone synthase (Actinosynnema mirum, UniProt C6WFL3); phosphate release; 50 µM).
For `CNC(=O)Oc1ccccc1OC(C)C`, the remaining activity was 79.2% (uncharacterized protein (Anopheles coluzzii, UniProt A0A6E8VQK1); enzyme activity, inhibitor; Sf9 cell homogenate; 1.147 µM, 0.1667 h, with: α-naphthyl acetate substrate; reference: no inhibitor).
Under IC50, `CC(=O)C1C(=O)c2ccccc2C1=O` is recorded as “inactive” (Nuclear receptor subfamily 1 group I member 3 (Homo sapiens, UniProt Q14994); coactivator recruitment).
For `C[C@]12CC[C@H]3[C@@H](CCC4=CC(=O)CC[C@@]43C)[C@@H]1CC[C@@H]2C(=O)CO`, the maximal response was 23 fold (NR3C2 (Homo sapiens, UniProt P08235); reporter gene, agonist; reference: baseline).
The IC30 of `N.N.O=C([O-])C1(C(=O)[O-])CCC1.[Pt+2]` is reported as greater than 30000 nM (Voltage-dependent P/Q-type calcium channel subunit alpha-1A (Homo sapiens, UniProt O00555); ion current, antagonist, automated patch clamp).
`COc1cc(Nc2ncc(F)c(Nc3ccc4c(n3)NC(=O)C(C)(C)O4)n2)cc(OC)c1OC` has an inhibition of 85% (RIPK2 (Homo sapiens, UniProt O43353); KINOMEscan; 10 µM).
`C[C@@H](O)[C@H](NC(=O)c1ccc(-c2ccccc2)cc1)C(=O)NO` — result for “entropy change (ΔS)”: 0.0145 kcal/mol/K (UDP-3-O-acyl-N-acetylglucosamine deacetylase (Pseudomonas aeruginosa, UniProt P47205, C40S); isothermal titration calorimetry; concentration not given, 298 K, untagged protein, averaged).
With `c1ccc2c(c1)cc1ccc3cccc4ccc2c1c34` the agonist response was 16.7% (Ahr (Rattus norvegicus, UniProt P41738); agonist, CALUX reporter; H4IIE; 1.26e-05 µg/mL).
For `NCCc1c[nH]c2ccc(O)cc12`, the Km was 180 ± 50 µM (AANAT2 Hippopotamus amphibius; substrate, DTNB colorimetric; with: acetyl-CoA).
The activation of `CN1CCN(c2cc(-c3ccncc3)c(-c3ccc4ccccc4c3)nn2)CC1` is reported as 15% (FFAR2 (Homo sapiens, UniProt O15552); agonist, FLIPR; 12.5 µM).
`[2H]c1c([2H])c([C@]2([2H])CCCN2C(=O)C(C)(C)Oc2ccc3cn[nH]c3c2)c([2H])c([2H])c1C([2H])([2H])[2H]` gave a remaining binding of 73% (FGFR4 (Homo sapiens, UniProt P22455); KINOMEscan; 1 µM; reference: DMSO control).
With `O=C(O)COP(=O)(O)O` the Ki ratio was 3070 (TPI1 (Saccharomyces cerevisiae, UniProt P00942, Y208F); enzyme activity, competitive inhibitor, GPDH/NADH-coupled; pH 6.4, 25 °C, ionic strength 0.1 NaCl, with: glyceraldehyde 3-phosphate substrate; reference: mutant over wild type).
The Km of `CO[P@@](=O)(Oc1ccccc1)OC1CCCCC1` is reported as 170 ± 20 µM (had (Sphingobium sp. TCM1, UniProt A0A077JBW9)).
With `Clc1cc2c(cc1Cl)Oc1cc(Cl)c(Cl)cc1O2` the EC80 was 1.21 ± 0.39 nM (Uncharacterized protein (Takifugu rubripes, UniProt Q4JHL6); reporter gene, agonist, dual-luciferase; COS-7; 24 h).
`CC[C@H](C)[C@H](NC(=O)[C@H](C)NC(=O)[C@H](CCC(=O)O)NC(=O)[C@H](Cc1c[nH]cn1)NC(=O)[C@H](CC(C)C)NC(=O)[C@@H](NC(=O)[C@H](Cc1ccccc1)NC(=O)[C@H](CO)NC(=O)[C@@H](NC(=O)[C@H](CC(C)C)NC(=O)[C@H](CC(=O)O)NC(=O)[C@H](CC(C)C)NC(=O)[C@@H]1CCCN1)[C@@H](C)O)C(C)C)C(=O)O` has a selectivity ratio of 26 (MAOA (Homo sapiens, UniProt P21397); inhibitor, fluorometric; reference: IC50 MAO-B over IC50 MAOA).
`O=C(c1ccc(Cl)cc1)N1CCN2C(=O)N(OC(=O)N3CCOc4ccccc43)C(=O)C2C1` (stereo not shown): “median protein ratio” 1.12 (PLA2G15 (Homo sapiens, UniProt Q8NCC3); MS-based ABPP; SW-620 conditioned medium; 10 µM, 1 h, 37 °C; reference: compound over DMSO, lower = more inhibition).
`CC[C@H](C)[C@H](NC(=O)CNC(=O)[C@@H](N)CCCCN)C(=O)N[C@@H](CC(C)C)C(=O)N[C@@H](CCCCN)C(=O)N[C@@H](CCCNC(=N)N)C(=O)N[C@@H](CCC(=O)O)C(=O)N[C@@H](CCCCN)C(=O)N[C@@H](CCCNC(=N)N)C(=O)N[C@@H](CC(C)C)C(=O)N[C@@H](CCCNC(=N)N)C(=O)N[C@@H](CCCNC(=N)N)C(=O)N[C@@H](CCCCN)C(=O)N[C@@H](CC(N)=O)C(=O)N[C@H](C(=O)N[C@@H](Cc1c[nH]cn1)C(=O)N[C@@H](Cc1c[nH]c2ccccc12)C(=O)N1CCC[C@H]1C(=O)N[C@@H](CCC(=O)O)C(=O)N[C@@H](CCC(=O)O)C(=O)NCC(=O)N[C@@H](CCCCN)C(=O)N[C@@H](CC(C)C)C(=O)N[C@@H](CCCNC(=N)N)C(=O)N[C@@H](CCC(=O)O)C(=O)N[C@@H](Cc1ccccc1)C(=O)N[C@@H](Cc1ccccc1)C(=O)N[C@@H](Cc1ccccc1)C(=O)N[C@@H](Cc1ccccc1)C(=O)N[C@@H](CCC(=O)O)C(=O)N[C@@H](CC(C)C)C(=O)N[C@@H](CC(=O)O)C(=O)N[C@@H](CCC(=O)O)C(=O)N[C@@H](C)C(=O)N[C@@H](CCC(=O)O)C(=O)N[C@@H](CCCNC(=N)N)C(=O)N[C@H](C(=O)N[C@@H](CC(N)=O)C(=O)N[C@H](C(=O)O)C(C)C)C(C)C)C(C)C` — result for “entropy change ΔS”: -57.3 ± 3.7 cal/mol/K (PPP1CA (Homo sapiens, UniProt P62136); binding, isothermal titration calorimetry; concentration not given, 25 °C, PP1α residues 7-330).
For `O=C(O)c1cc[c]([Hg][Cl])cc1`, the Hill coefficient was 1.7 (blaNDM-1; inhibitor).
For `O=C(O)c1cccc(C(N(Cc2ccccc2)C(=O)c2cccs2)P(=O)(O)O)n1` (stereo not shown), the dissociation half-life was 9.1 ± 0.4 min (blaNDM-1; inhibitor; with: nitrocefin).
With `C[C@]12CC[C@H]3[C@@H](CCC4=CC(=O)CC[C@@]43C)[C@@H]1CC[C@@H]2C(=O)CO` the k2 was 0.34 ± 0.06 s⁻¹ (CYP11B2 (Homo sapiens, UniProt P19099, A320V)).
`C[C@@H](O)[C@H](NC(=O)[C@H](Cc1ccccc1)NC(=O)[C@H](Cc1ccccc1)NC(=O)[C@H](CC(=O)O)NC(=O)[C@H](CC(=O)O)NC(=O)[C@H](Cc1c[nH]c2ccccc12)NC(=O)[C@H](CO)NC(=O)[C@@H](N)CCCCN)C(=O)N[C@@H](CCCNC(=N)N)C(=O)O` gave a koff of 0.0102 s⁻¹ (Epithelial sodium channel subunit alpha (Homo sapiens, UniProt P37088); binding, bio-layer interferometry).

A few entries again:
`COc1ccc(N2C(=O)N(c3c(C)cccc3Cl)Cc3cnc(Nc4ccc(C5CCN(C)CC5)cc4OC)nc32)nc1` gave an inhibition of 2.41% (PRKCI (Homo sapiens, UniProt P41743); kinase activity, inhibitor; 0.5 µM, kinase PKC-IOTA).
For `COc1cc(N)c(Cl)cc1C(=O)NC1CN2CCC1CC2` (stereo not shown), “log2 fold change” read 0.04 (G-protein coupled receptor 83 (GPR83, Homo sapiens, UniProt Q9NYM4); β-arrestin recruitment, TANGO luminescence, measured: GPR83; concentration not given; reference: basal luminescence).
